Results gathered from unrelated publications.
Protocols differ between the studies behind these lines. Numbers after ± are the reported error.

CCN(CC)c1ccc2c(c1)O[B-]1(c3ccccc3C)OC(=O)C(c3ccccc3)=N[N+]1=C2 (stereo not shown)  fluorescence emission maximum (toluene): 507 nm
CN1CCN(c2ccc3[nH]c(-c4ccc5[nH]c(-c6ccc(OCCCCNC(=O)c7cccc8c7C(=O)OC87c8ccc(N(C)C)cc8C(C)(C)c8cc(N(C)C)ccc87)cc6)nc5c4)nc3c2)CC1  fluorescence quantum yield (PBS; 1 µM, 2 h, room temperature, together with: 20 µM hairpin DNA): 0.39 ± 0.03
CCC1=[N+]2N=C(c3ccccc3)C(=O)O[B-]2(c2ccccc2)Oc2cc(OC)ccc21 (stereo not shown)  fluorescence emission maximum (toluene): 500 nm
CN1CCN(c2ccc3[nH]c(-c4ccc5[nH]c(-c6ccc(OCCCCNC(=O)c7cccc8c7C(=O)OC87c8ccc(N(C)C)cc8[Si](C)(C)c8cc(N(C)C)ccc87)cc6)nc5c4)nc3c2)CC1  fluorescence quantum yield (PBS): 0.01 ± 0.03
CC1(C)C(=CC=C2CCCC(C=CC3=[N+](CCC[N+](C)(C)C)c4ccc(S(=O)(=O)O)cc4C3(C)C)=C2SCCOCCOCCC(=O)O)N(CCC[N+](C)(C)C)c2ccc(S(=O)(=O)O)cc21  fluorescence quantum yield (DMSO): 15.4%
CCCCN1C(=O)c2cccc3c(NCCCN4CCOCC4)ccc(c23)C1=O  fluorescence lifetime (toluene): 8.1 ns
CN1CCN(c2ccc(/C=C/c3cc(=O)cc(/C=C/c4ccc(N5CCN(C)CC5)cc4)o3)cc2)CC1  fluorescence quantum yield (acetonitrile; 10 µM, 298 K; relative to: 9,10-diphenylanthracene in toluene): 0.004
CCCCN1C(=O)c2cccc3c(NCCCCCCCCCCN4CCOCC4)ccc(c23)C1=O  fluorescence quantum yield (ethyl acetate): 1
O=c1cc(/C=C/c2ccc(N3CCCC3)cc2)oc(/C=C/c2ccc(N3CCCC3)cc2)c1  fluorescence bathochromic shift (fluorescence; nanoparticles in aqueous acetonitrile; relative to: acetonitrile solution): 1190 cm⁻¹
C=Cc1ccc([B-]23OC(=O)C(c4ccccc4)=N[N+]2=Cc2ccc(N(CC)CC)cc2O3)cc1 (stereo not shown)  fluorescence quantum yield (toluene): 0.62

Excerpt of the above:
CN1CCN(c2ccc3[nH]c(-c4ccc5[nH]c(-c6ccc(OCCCCNC(=O)c7cccc8c7C(=O)OC87c8ccc(N(C)C)cc8[Si](C)(C)c8cc(N(C)C)ccc87)cc6)nc5c4)nc3c2)CC1  fluorescence quantum yield (PBS): 0.01 ± 0.03
